Measured values gathered from unrelated publications.
Each line is one published result; not all experiments were run side by side. ± gives the spread as reported. Converted amounts (≈) assume the structure as drawn.

Oc1ccc2ccccc2c1/N=N/c1ccccc1
measured concentration (extracted rat blood QC samples; 5.0 µg/L, 2 h, room temperature, short-term stability): 4.94 µg/L

CN1CC[C@H](c2c(O)cc(O)c3c(=O)cc(/C=C/c4c(Cl)cccc4Cl)oc23)[C@H](O)C1.O=C(O)CNC(=O)c1ccccc1
AUC(0-t) (dissolution, USP paddle apparatus; water, 0.25% SLS; concentration not given, sink conditions): 17500 ± 1540 ng·h/mL

C=CC(=O)Nc1cc(Nc2nccc(-c3c[nH]c4ccccc34)n2)c(OC)cc1N(C)CCN(C)C
steady-state trough concentration (UHPLC-MS/MS; human, finger-prick dried blood spot; oral, 80 mg daily): 19 ng/mL

CCCC[C@H](NC(=O)CNC(=O)CNC(=O)CN1CCN(CC(=O)O)CCN(CC(=O)O)CC1)C(=O)N[C@H]1CC(=O)NCCCC[C@@H](C(N)=O)NC(=O)[C@H](Cc2c[nH]c3ccccc23)NC(=O)[C@H](CCCNC(=N)N)NC(=O)[C@@H](Cc2ccccc2)NC(=O)[C@H](Cc2c[nH]cn2)NC1=O [gallium-67 labelled]
tumour to tissue uptake ratio (C57 mice, female, B16/F1 melanoma, tumour over muscle; intravenous, 0.037 MBq, 4 h): 54.7

N=C(N)NCCC[C@@H]1NC(=O)[C@H](Cc2c[nH]c3ccccc23)NC(=O)[C@@H](CC2CCCCC2)NC(=O)[C@@H]2CCCN2C(=O)[C@@H](NC(=O)CCc2ccccc2)CCCNC1=O
bioavailability (C57BL/6J mouse, plasma; intraperitoneal, 1 mg/kg, single dose; relative to: intravenous AUC): 60.3%

CC(C)C[C@@H](NC(=O)[C@H](NC(=O)[C@H]1CCCN1)[C@H](C)O)C(=O)N[C@H](Cc1c[nH]cn1)C(=O)N[C@@H](C(=O)N[C@H](Cc1c[nH]cn1)C(=O)N[C@H](CC(N)=O)C(=O)N[C@H](CCCNC(=N)N)C(=O)N[C@H](CCCNC(=N)N)C(=O)N[C@H](CCCNC(=N)N)C(=O)N[C@H](CCCNC(=N)N)C(=O)N[C@H](CCCNC(=N)N)C(N)=O)[C@H](C)O
bioavailability (beagle dog, plasma; oral, 20 mg/kg, single dose): 2%

CC(=O)N[C@H](CC(=O)O)C(=O)N[C@H](Cc1c[nH]c2ccccc12)C(=O)N[C@H](Cc1ccccc1)C(=O)N[C@H](CCCCN)C(=O)N[C@H](C)C(=O)N[C@H](Cc1ccccc1)C(=O)N[C@H](Cc1ccc(O)cc1)C(=O)N[C@H](CC(=O)O)C(=O)N[C@H](CCCCN)C(=O)N[C@@H](C(=O)N[C@H](C)C(=O)N[C@H](CCC(=O)O)C(=O)N[C@H](CCCCN)C(=O)N[C@H](Cc1ccccc1)C(=O)N[C@H](CCCCN)C(=O)N[C@H](CCC(=O)O)C(=O)N[C@H](C)C(=O)N[C@H](Cc1ccccc1)C(N)=O)C(C)C
Cmax (statin-treated high-risk CHD men, plasma; oral, 100 mg daily, day 1, 0 to 2 h, mean, undetectable set to 0): 2.37 ng/mL

O=C([O-])CN1CCN(CC(=O)[O-])CCN(CC(=O)NC[C@H]2CC[C@H](C(=O)N[C@H](Cc3cnc4ccccc4c3)C(=O)NCCCC[C@H](NC(=O)N[C@@H](CCC(=O)O)C(=O)O)C(=O)O)CC2)CCN(CC(=O)[O-])CC1.[64Cu+2]
absorbed dose (PET/CT dosimetry; healthy human volunteers, urinary bladder wall): 0.148 mGy/MBq

CCCC[C@@H]1NC(=O)[C@H](CCC(=O)O)NC(=O)[C@H](CCCNC(=N)N)NC(=O)[C@H](CCC(N)=O)NC(=O)[C@](C)(NC(=O)[C@H](CC(C)C)NC(=O)[C@H](CS)NC(=O)[C@H](CCC(N)=O)NC(=O)[C@H](C)NC(=O)[C@H](CCCNC(=N)N)NC(=O)CNC(=O)[C@H](CCCCN)NC(=O)[C@H](CCC(=O)O)NC(=O)[C@H](CC(=O)O)NC(=O)[C@H](CC(C)C)NC(=O)[C@H](CC(C)C)NC(C)=O)CCCCCCC=CCCC[C@@](C)(C(=O)N[C@@H](CC(C)C)C(=O)N[C@@H](CCC(=O)O)C(=O)N[C@@H](CCC(N)=O)C(=O)N[C@@H](CCC(N)=O)C(=O)N[C@@H](CC(C)C)C(=O)N[C@H](C(=O)N[C@@H](CC(C)C)C(=O)N[C@@H](CCC(=O)O)C(=O)N[C@@H](CCCCN)C(=O)N[C@@H](CCC(=O)O)C(=O)N[C@@H](CCCCN)C(N)=O)C(C)C)NC(=O)[C@H](CCC(N)=O)NC(=O)[C@H](C(C)C)NC1=O
alpha-helicity (circular dichroism; sodium acetate buffer; 2.5 to 10 µM, pH 3.6, 20 °C): 10%

C#CCOc1ccc(/C=C2\SC(=O)N(CC(=O)NCc3ccccc3)C2=O)cc1
Kirkwood-Buff integral G1,3 (inverse Kirkwood-Buff integrals; binary solvent mixture; 298.15 K, mole fraction x1 0.25): -277 cm³/mol

O=C([O-])CN(CCN(CC(=O)[O-])Cc1cc(CCC(=O)NCCCCCC(=O)NCCCC[C@H](NC(=O)N[C@@H](CCC(=O)O)C(=O)O)C(=O)O)ccc1O)Cc1cc(CCC(=O)O)ccc1[O-].[68Ga+3]
SUVmean (PET/CT; human, normal liver): ~4.5

CN(C)C(=O)c1ccc(COC(=O)N(Cc2cccc(CN3CCCCC3)c2)[c-]2cccc2)cc1.[Fe+2].c1cc[cH-]c1
E1/2 (cyclic and differential pulse voltammetry; acetonitrile; 23 °C; relative to: ferrocene/ferrocenium): -35 mV

COc1cc(-c2nc3ccc(C(=O)NCCCN4CCN(C5CCCCC5)CC4)cc3n2C2CCC2)cc(OC)c1OC
dynamic solubility: 149 µM

CC(C)(Sc1cc[n+]([O-])cc1-c1ccc(C#N)c2ccccc12)C(=O)OC1OC(C(=O)O)C(O)C(O)C1O (stereo not drawn)
renal clearance (human, urine; oral, 15 mg, 72 h, mild renal impairment): 220 mL/min

CCCC[C@@H]1NC(=O)[C@@H](NC(=O)[C@H](CCC(=O)O)NC(=O)CNC(=O)CN2CCN(CC(=O)O)CCN(CC(=O)O)CCN(CC(=O)O)CC2)CCCCNC(=O)C[C@@H](C(N)=O)NC(=O)[C@H](C(C)C)NC(=O)[C@@H]2CCCN2C(=O)[C@H](CCCNC(=N)N)NC(=O)CNC(=O)[C@H](Cc2c[nH]c3ccccc23)NC(=O)[C@H](CCCNC(=N)N)NC(=O)[C@@H](Cc2ccccc2)NC(=O)[C@H](Cc2c[nH]cn2)NC(=O)[C@H](CCC(=O)O)NC1=O [gallium-67 labelled]
tissue uptake (C57 mice, B16/F10 lung metastases, bone; intravenous, 0.037 MBq/mouse, 4 h): 0.44 ± 0.09 %ID/g

Oc1c(Br)cc(Br)c2nc3cc(C(F)(F)F)ccc3nc12
hemolysis (human red blood cells; 200 µM, 1 h, pH 7.2, 37 °C): 7.2%

CC(C)(O)c1ncc([S@](N)(=O)=NC(=O)Nc2c3c(cc4c2CCC4)CCC3)s1
Tmax (healthy human, fasted; oral, 300 mg single dose, capsule formulation): 90 min

CN(C)c1ccc(-c2nc3ccc(OCCCCCN4CCN5CCN(CC4)CC(=O)[O][Al]([18F])[O]C(=O)C5)cc3s2)cc1
intestine uptake (ICR mouse; intravenous, dose not given, 60 min): 37.6 ± 6.8 % injected dose/organ

CC(C)(Sc1ccncc1-c1ccc(C#N)c2ccccc12)C(=O)OC1OC(C(=O)O)C(O)C(O)C1O (stereo not drawn)
renal clearance (human, urine; oral, 15 mg, 72 h, severe renal impairment): 19.6 mL/min

[11CH3]c1ccc2nc(C3CCC3)n(-c3ccc4[nH]ncc4c3)c2n1
absorbed radiation dose (human male, adrenals): 3.4 µSv/MBq

Cc1ccc(OCC(=O)N(Cc2cccs2)c2ccn[nH]2)cc1
dose-normalised AUC(0-last) (Sprague-Dawley rat, female, plasma; oral gavage, 100 mg/kg): 1.57 ng·h/mL/mg/kg

CC(C)[C@H](NC(=O)[C@@H]1CCCN1C(=O)[C@H](CCCNC(=N)N)NC(=O)[C@H](CS)NC(=O)[C@H](Cc1c[nH]c2ccccc12)NC(=O)[C@H](CCCNC(=N)N)NC(=O)[C@@H](Cc1ccccc1)NC(=O)[C@H](Cc1c[nH]cn1)NC(=O)[C@H](CCC(=O)O)NC(=O)[C@H](CS)NC(=O)[C@H](CS)NC(=O)[C@@H]1CC(=O)N[C@@H](CCCNC(=N)N)C(=O)NCC(=O)N[C@@H](CC(=O)O)C(=O)N[C@H](Cc2ccc(O)cc2)C(=O)N1)C(N)=O [technetium-99m labelled]
tumour to tissue ratio (C57 mouse, female, B16/F1 melanoma; intravenous, 0.037 MBq, 24 h; relative to: tumour over lung): 23.9

CCCC(CCC)NC(=O)c1ccc(O)c(O)c1
metabolite peak area (LC-MS; human liver microsomes; 10 µM of parent drug, 60 min, pH 7.4, together with: NADPH; relative to: parent drug at time zero): ~15.2%

C=C(c1ccc(C(=O)O)c(F)c1)c1cc2c(cc1C)C(C)(C)C=CC2(C)C
blood triglycerides (Sprague-Dawley rat, male; oral, 100 mg/kg, 1 h, sesame oil vehicle): 33 ± 1.7 mg/dL

CC(C)c1cnc(-c2cc(Cl)ccc2F)cc1Nc1ccncc1C(=O)NC(CO)CO
patients with treatment-related adverse event (monotherapy, refers to: nausea; human patients; oral, dose not given, grade 4, phase I A): 0%

CC(C)[C@H](NC(=O)CNC(=O)[C@H](CCC(N)=O)NC(=O)[C@H](C)N)C(=O)O
half-life (LC-MS/MS; human, male, plasma; intravenous, 30 mg/kg three times daily, day 3, first dose, 10 min infusion, geometric mean): 16.2 min

Cc1[nH]c(=O)c(CNC(=O)c2cnc(C(F)(F)F)nc2)c2c1CCCC2
kinetic solubility (U-HPLC; 20% DMSO in water): 146 µg/mL (≈ 397 µM)

NC12CNCCNCC(NCc3ccc(CNC(=O)CCCC(=O)NCc4ccc(-c5nncnn5)cc4)cc3)(CNCCNC1)CNCCNC2.[64Cu+2]
mean absorbed dose (OLINDA dosimetry; testes; 24 h pretargeting interval, together with: huA33-TCO pretargeting): 0.0348 rad/mCi

COC(=O)/C=C/C(=O)c1ccc(OC)cc1
recovery (LC-MS/MS; rat plasma; 40 ng/mL, 12 h, room temperature, short-term storage): 101 ± 1.91%

CCCC[C@H](NC(=O)CNC(=O)CNC(=O)CN1CCN(CC(=O)O)CCN(CC(=O)O)CC1)C(=O)N[C@H]1CC(=O)NCCCC[C@@H](C(N)=O)NC(=O)[C@H](Cc2c[nH]c3ccccc23)NC(=O)[C@H](CCCNC(=N)N)NC(=O)[C@@H](Cc2ccccc2)NC(=O)[C@H](Cc2c[nH]cn2)NC1=O [copper-64 labelled]
uptake ratio (female C57 mouse, B16/F1 melanoma; intravenous, 0.037 MBq, 0.5 h; relative to: tumour over blood): 7.87

COCCOCCOCCOCCOCCOCCOCCOCCC(=O)NCCCc1cc2cc3nc(cc4[nH]c(cc5nc(c(OC)c1[nH]2)C(=O)C5(C)C)cc4CCc1ccc(C(=O)O)cc1)CC3(C)C
Qy/B absorption intensity ratio (water with 5% DMF; room temperature): 0.29

COc1ccc2c(c1)c(CC(=O)Nc1nnc(CCCCc3ccc(NC(=O)Cc4cccc(OC(F)(F)F)c4)nn3)[se]1)cn2C
remaining compound (ICR mouse, whole blood, heparinized; 0.091 mg/mL, 2 h, 37 °C): 75 ± 1.1%

NS(=O)(=O)c1ccc(N2N=C(C(F)(F)F)CC2c2ccc(F)cc2F)cc1 (stereo not drawn)
ka (population PK model; Beagle dog; bootstrap median): 0.22 h⁻¹

Repeated from above:
C=CC(=O)Nc1cc(Nc2nccc(-c3c[nH]c4ccccc34)n2)c(OC)cc1N(C)CCN(C)C
steady-state trough concentration (UHPLC-MS/MS; human, finger-prick dried blood spot; oral, 80 mg daily): 19 ng/mL

CCCC[C@H](NC(=O)CNC(=O)CNC(=O)CN1CCN(CC(=O)O)CCN(CC(=O)O)CC1)C(=O)N[C@H]1CC(=O)NCCCC[C@@H](C(N)=O)NC(=O)[C@H](Cc2c[nH]c3ccccc23)NC(=O)[C@H](CCCNC(=N)N)NC(=O)[C@@H](Cc2ccccc2)NC(=O)[C@H](Cc2c[nH]cn2)NC1=O [gallium-67 labelled]
tumour to tissue uptake ratio (C57 mice, female, B16/F1 melanoma, tumour over muscle; intravenous, 0.037 MBq, 4 h): 54.7

N=C(N)NCCC[C@@H]1NC(=O)[C@H](Cc2c[nH]c3ccccc23)NC(=O)[C@@H](CC2CCCCC2)NC(=O)[C@@H]2CCCN2C(=O)[C@@H](NC(=O)CCc2ccccc2)CCCNC1=O
bioavailability (C57BL/6J mouse, plasma; intraperitoneal, 1 mg/kg, single dose; relative to: intravenous AUC): 60.3%

CC(C)C[C@@H](NC(=O)[C@H](NC(=O)[C@H]1CCCN1)[C@H](C)O)C(=O)N[C@H](Cc1c[nH]cn1)C(=O)N[C@@H](C(=O)N[C@H](Cc1c[nH]cn1)C(=O)N[C@H](CC(N)=O)C(=O)N[C@H](CCCNC(=N)N)C(=O)N[C@H](CCCNC(=N)N)C(=O)N[C@H](CCCNC(=N)N)C(=O)N[C@H](CCCNC(=N)N)C(=O)N[C@H](CCCNC(=N)N)C(N)=O)[C@H](C)O
bioavailability (beagle dog, plasma; oral, 20 mg/kg, single dose): 2%

CC(=O)N[C@H](CC(=O)O)C(=O)N[C@H](Cc1c[nH]c2ccccc12)C(=O)N[C@H](Cc1ccccc1)C(=O)N[C@H](CCCCN)C(=O)N[C@H](C)C(=O)N[C@H](Cc1ccccc1)C(=O)N[C@H](Cc1ccc(O)cc1)C(=O)N[C@H](CC(=O)O)C(=O)N[C@H](CCCCN)C(=O)N[C@@H](C(=O)N[C@H](C)C(=O)N[C@H](CCC(=O)O)C(=O)N[C@H](CCCCN)C(=O)N[C@H](Cc1ccccc1)C(=O)N[C@H](CCCCN)C(=O)N[C@H](CCC(=O)O)C(=O)N[C@H](C)C(=O)N[C@H](Cc1ccccc1)C(N)=O)C(C)C
Cmax (statin-treated high-risk CHD men, plasma; oral, 100 mg daily, day 1, 0 to 2 h, mean, undetectable set to 0): 2.37 ng/mL
